Measured values pooled from the literature.
Each numbered part is a random draw from the data of one study; scales do not carry over between parts.

Set 1 — method: protein-binding microarray; molecule type: double-stranded DNA, one strand shown; medium: in vitro; concentration: 940 nM top; setting: 60-bp whole probe; added: salmon DNA 0.4 mg/ml; baseline: random background probes; direction: higher = stronger binding; shared flanks, not repeated: GCCTAGCAC … GTCTTGATTCGCTTGACGCTGCTG
Target: Interferon regulatory factor 5, full length, phosphomimetic (IRF5, Homo sapiens, UniProt Q13568-2, residues 1-514, S451D/S453D/S456D/S462D)
Under “fitted relative affinity”, `GACGGTAACCTTATCCTGACGTGCTAG` is recorded as -0.385 z-score.
`TCAGGACTCGGGTCTCCCACTGTGCTA`: “fitted relative affinity” -0.402 z-score.
`GACGAACTGGGGTATCGACACGTGCTA` — result for “fitted relative affinity”: 0.757 z-score.
`TCACCTCTCCTCTCAGGAACTGTGCTA` — result for “fitted relative affinity”: 0.242 z-score.
Under “fitted relative affinity”, `GACGATTTCAGTCACGAGACGTGCTAG` is recorded as 0.236 z-score.
`TTAGGTATCGGGACTAGGTTAGTGCTA` — result for “fitted relative affinity”: 3.63 z-score.
`AGTTTTTCATTTTTTTTCATGTGCTAG` — result for “fitted relative affinity”: 2.08 z-score.
`GTGTTTTGCCCTATTTAAGAGTGCTAG`: “fitted relative affinity” 0.768 z-score.
`GACGGTTTCGGGTTTCGTGACGTGCTA`: “fitted relative affinity” 7.74 z-score.
Under “fitted relative affinity”, `TTAGTTATCGGGTATCGATTAGTGCTA` is recorded as 3.39 z-score.
`TTTGAACTGAGTTTCGATTAGTGCTAG` — result for “fitted relative affinity”: 7.85 z-score.
`TTAGGACAGGGGACTGGGTTAGTGCTA` — result for “fitted relative affinity”: 0.194 z-score.
Under “fitted relative affinity”, `GACGTTTTCGACTTTCGGGACGTGCTA` is recorded as 1.46 z-score.
`GCTGGTCTCTAACTCAAGATGTGCTAG` — result for “fitted relative affinity”: 0.211 z-score.
Under “fitted relative affinity”, `GACGGTTTCCTCTCCCTGACGTGCTAG` is recorded as 1.2 z-score.
`CTCTTTCTTTGCTTCACCCTGTGCTAG`: “fitted relative affinity” 2.07 z-score.
For `GACGGTATCGGGACTGTGGACGTGCTA`, “fitted relative affinity” read 2.9 z-score.
For `AACGGTCTCGGTATCGGGACGTGCTAG`, “fitted relative affinity” read 4.61 z-score.
For `TCAAATTAGTGTTTTGCACTGTGCTAG`, “fitted relative affinity” read -0.283 z-score.
Under “fitted relative affinity”, `GTCGGACTGGGGTATCGGGACGTGCTA` is recorded as 0.49 z-score.
Under “fitted relative affinity”, `TTAGGTATCGGGACTGGGGTAGTGCTA` is recorded as 4.06 z-score.
`GCGATTTGAGGAGCTCGCTCGTGCTAG` — result for “fitted relative affinity”: -0.81 z-score.
`TCATTTTTACTTCGGGTACTGTGCTAG` — result for “fitted relative affinity”: 0.945 z-score.
Under “fitted relative affinity”, `TGGTAATTCTTTGCTCATTTTGTGCTA` is recorded as 0.84 z-score.
Under “fitted relative affinity”, `GACGGTTTCAGTATCGGGACGTGCTAG` is recorded as 6.64 z-score.

Set 2 — method: protein-binding microarray; molecule type: double-stranded DNA, one strand shown; medium: in vitro; concentration: not given; direction: higher = stronger binding
Target: Transcription factor Sp1 (SP1, Homo sapiens, UniProt P08047, residues 1-785, full length assumed)
Chain of UniProt P08047 (whole entry, looked up): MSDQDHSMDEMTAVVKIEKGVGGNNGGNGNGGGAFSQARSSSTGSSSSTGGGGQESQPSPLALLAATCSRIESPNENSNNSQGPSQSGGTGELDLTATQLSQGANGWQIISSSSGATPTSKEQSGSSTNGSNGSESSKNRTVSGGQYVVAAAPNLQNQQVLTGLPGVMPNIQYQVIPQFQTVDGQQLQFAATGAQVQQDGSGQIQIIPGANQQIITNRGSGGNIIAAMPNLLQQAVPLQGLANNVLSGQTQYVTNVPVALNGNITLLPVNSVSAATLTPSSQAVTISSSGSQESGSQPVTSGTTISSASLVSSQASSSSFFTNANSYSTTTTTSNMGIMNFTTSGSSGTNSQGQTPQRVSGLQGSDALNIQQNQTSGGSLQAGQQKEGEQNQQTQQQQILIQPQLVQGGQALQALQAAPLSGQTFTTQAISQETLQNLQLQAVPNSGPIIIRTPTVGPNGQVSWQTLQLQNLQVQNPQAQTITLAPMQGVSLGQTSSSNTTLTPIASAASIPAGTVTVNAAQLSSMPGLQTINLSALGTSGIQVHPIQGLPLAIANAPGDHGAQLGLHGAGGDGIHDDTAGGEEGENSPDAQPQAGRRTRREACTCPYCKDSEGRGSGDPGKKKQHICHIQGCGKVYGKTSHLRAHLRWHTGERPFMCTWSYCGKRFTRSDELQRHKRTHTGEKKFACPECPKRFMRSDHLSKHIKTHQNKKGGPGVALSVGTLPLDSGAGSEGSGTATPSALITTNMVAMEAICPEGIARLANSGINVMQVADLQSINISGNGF
Setting: k-mer, scored over probes, only values ≥0.25
With `CCCCACCC` the E-score was 0.481.
The E-score of `GCCACACC` is reported as 0.303.
With `AGGTATTA` the E-score was 0.257.
The E-score of `ACCCCAAT` is reported as 0.287.
With `CCATCCCC` the E-score was 0.274.
`CACGACCC` has an E-score of 0.267.
For `GGGGAATA`, the E-score was 0.285.
`GGGTGTAC` has an E-score of 0.264.
For `GTGTATTA`, the E-score was 0.286.
`AAATGGTA` gave an E-score of 0.31.
`ATACCATC` has an E-score of 0.259.
`ACCCCTAA` has an E-score of 0.264.
With `ACTAGTGG` the E-score was 0.31.
The E-score of `ATGACCCA` is reported as 0.278.
`AACCATTA` gave an E-score of 0.253.
`TCATATGA` gave an E-score of 0.301.
`AACAACAA` has an E-score of 0.264.
`CCCCGCCA` has an E-score of 0.459.
For `CGCCCCCG`, the E-score was 0.341.
With `ATATATGG` the E-score was 0.397.
`CGCCCACA` gave an E-score of 0.44.
The E-score of `CCATCTCC` is reported as 0.269.
The E-score of `CCACACCA` is reported as 0.326.
The E-score of `AGGCGTGG` is reported as 0.327.
For `ACCTACAT`, the E-score was 0.251.

Set 3 — method: RNA Bind-n-Seq; molecule type: RNA; medium: in vitro; concentration: 200 nM; setting: whole 134-nt RNA, ends assumed; added: 150 mM KCl; baseline: input library; direction: higher = stronger binding
Target: Fragile X messenger ribonucleoprotein 1, C-terminal low-complexity region (Fmr1, Mus musculus, UniProt P35922)
Shared flanks, not repeated: GGGAGUUCUACAGUCCGACGAUC … UGGAAUUCUCGGGUGUCAAGG
`AAGUCCUGUGCUACACAUCGUAUGUACCGAAUCGGGGCCCCGGGCCCCGGGCCCCGGAAAGUAUUAUGUUACGCCGUUCGGAUCUGCACU` gave a log2 enrichment of -0.704.
`UCCUCAAGUCCUGUGCUACACAUCGUAUGUACCGAAUCGGUGGGUGGUGGGGAAAGUAUUAUGUUACGCCGUUCGGAUCUGCACUUCCAG` has a log2 enrichment of 0.522.
With `CCUGUGCUACACAUCGUAUGUACCGAAUCGGGGAAAAAAAGGGGUUUUUUUGGGGAGGGGAAAGUAUUAUGUUACGCCGUUCGGAUCUGC` the log2 enrichment was 0.47.
The log2 enrichment of `GUCCUGUGCUACACAUCGUAUGUACCGAAUCGGGGUUUUGGGGUUUUGGGGUUUUGGGGAAAGUAUUAUGUUACGCCGUUCGGAUCUGCA` is reported as 0.614.
`UCCUGUGCUACACAUCGUAUGUACCGAAUCGGGAAAAAAGGGAAAAAAGGAAAAAAGGGAAAGUAUUAUGUUACGCCGUUCGGAUCUGCA` has a log2 enrichment of -0.116.
`UCCUCAAGUCCUGUGCUACACAUCGUAUGUACCGAAUCGGGGCGGCGGCGGAAAGUAUUAUGUUACGCCGUUCGGAUCUGCACUUCCAGC` has a log2 enrichment of -0.121.
`AGUCCUGUGCUACACAUCGUAUGUACCGAAUCGGGAAAAGGGGAAAAGGGGAAAAGGAAAGUAUUAUGUUACGCCGUUCGGAUCUGCACU` gave a log2 enrichment of 0.0407.
The log2 enrichment of `UCCUGUGCUACACAUCGUAUGUACCGAAUCGGGGAAAAAGGGGAAAGGGGAAAAAGGGGAAAGUAUUAUGUUACGCCGUUCGGAUCUGCA` is reported as 0.363.
With `GUCCUGUGCUACACAUCGUAUGUACCGAAUCAAAUUUUUAAAUUUUUAAACCCCCAAAAAAGUAUUAUGUUACGCCGUUCGGAUCUGCAC` the log2 enrichment was 0.177.
`AAGUCCUGUGCUACACAUCGUAUGUACCGAAUCGGGAAAGGGAAAAAGGGUUUGGGAAAGUAUUAUGUUACGCCGUUCGGAUCUGCACUU` gave a log2 enrichment of 0.19.
With `GUCCUGUGCUACACAUCGUAUGUACCGAAUCGGGGAAAAAGGGGUUUGGGGAAAGGGGAAAGUAUUAUGUUACGCCGUUCGGAUCUGCAC` the log2 enrichment was 0.448.
With `UUCAGGAUGAAGAUGCAUCAGGGGGCGAUCAAGAUCAGGAAGAAAGAAGAUGGAACAAAAGGACUCAGCAGAUGCUUCAUGGUCUUCAGG` the log2 enrichment was -1.25.
The log2 enrichment of `GCAGGAAGUAAAAACAAAUGGAAAUGCUUCGGAUAGAGGCAGGGGUGGGGGUUGCUAAGGAAAGGGUGGGAUGGGAGUGGGUAAAGAGUU` is reported as 0.697.
For `CACAGACAACACGCACCCACACAGACACAGAGGGAAGGGGUUGGGAUGGGGACCGGGUGCACAGCAGGGCGGGGUAGGACCCCAGCCCCU`, the log2 enrichment was 1.37.

Set 4 — method: RNA Bind-n-Seq; molecule type: RNA; medium: in vitro; concentration: 365 nM; baseline: no-protein control; direction: higher = stronger binding
Target: RNA binding protein fox-1 homolog 2, RRM domain, GST-SBP tag (RBFOX2, Homo sapiens, UniProt O43251-10, residues 100-194)
Setting: natural RNA segment, single round, ends assumed
Shared flanks, not repeated: GGGAGUUCUACAGUCCGACGAUC … UGGAAUUCUCGGGUGCCAA
Construct (chain): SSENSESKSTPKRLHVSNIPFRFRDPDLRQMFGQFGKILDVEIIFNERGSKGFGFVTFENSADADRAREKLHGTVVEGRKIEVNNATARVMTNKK
`GUUAACUCCUAACACAUAUUCUCUUAUGUCUCAGUAAAGUUUCAUUUGAUAAGUUGUUGAGAUUCUGUUAUUUGAUAAUAUUCUUCGGCUGUCCAUCCAGCAUCUUAAUC`: “RBNS enrichment (R)” 0.68.
For `CUUUUCUUUUCAGCUUGAUUGCAUUUGACUAUAUUUUACAGCCAGUGAUUGUAGUUUCAUGUUAAUAUGUGGCAAAAUAUUUUUGUAAUUAUUUUCUAAUCCCUUUCUGA`, “RBNS enrichment (R)” read 0.89.
`UCUGGAGCGCCCCCGUCAGCCCCUGGCGGUGGGAGGUGAGAGCGAGUGGUUUAAGUGCCUGAUUACCACCACCCGCCCCCCCCUUUGUCCAGCUGGGACACGGAAUGGCC` — result for “RBNS enrichment (R)”: 2.44.
For `GGAGGGGGUCUCCAGACUCCACUGAAGCAGGAAGUCCACUGUUGUAAACUGAGUUUGCUAAAUUGGGUCCCCAGAGGAUACCAUGAGAGUGGGUAGGGCAAAAAGAGCCC`, “RBNS enrichment (R)” read 0.17.
`GAAAAGGAAACACACCCCAAGGCAAGAAUGAGGAGGCAUGAUGCUAAGGAGGACAACUAUGAGGUAAAGCCAUCCCCAGACUGACAGCUCUGCCUUUAUCUUGCCUCUGG`: “RBNS enrichment (R)” 14.1.
`GCUGUGAGGACACUCACCUUGUUCUGGCUUCAGCUGCUAGCCUACCCACAUCUCAGCGCUUUCCCCUUUUUUACCACUUAGACUUAAAGCAGGUGUCUUAAUUUACUCAA` — result for “RBNS enrichment (R)”: 0.573.
Under “RBNS enrichment (R)”, `CAUACCAUCCACAUCAGAAUCCCUUGUAGGAUUUUCUAAAAUUACAGAUUGUUGAGCCUACCAUAGGUCAAAAGGACUGGAAUUUUCCUUCUUAACAAGUAUAGUCAUGG` is recorded as 0.636.
Under “RBNS enrichment (R)”, `CACACACAGCAACACUGAAAUCCUACAGACCAAACAAACCCACUUGUCAGCAGGAGCCGUGGUCCAGCCCAGCACCUGUGCUCUCGUAGCCGAGGCCAGCCGUGUUGGGA` is recorded as 0.507.
`AUCGGGUGCGGAUUGGUGCUAAUUUAAACAAAAGGGCCUCUGGGGUCUUUUGUUCAAUAUUUUACAAUUUAGACUUCUGUCCAACACUAAUUUAUUUUGUCUUGAGUUGU` — result for “RBNS enrichment (R)”: 0.799.
For `GUGGCUCUGGGUACCUGCAAGCAGAACUUCCAAAGAGAGUUAAAAGCAGCAGCCCCGGCAACUCUGGCUCCAGGCAGAAGGAGAGGCCCGGUGCAGCUGAGGUUCCCGAC`, “RBNS enrichment (R)” read 1.33.
For `CAAGUGAUUAAGUGUGUAUUUGUACCCUAGAUGAUAUGAACCAGCAGUCUUGUUUUGGCAUCAUCCUCAUCAUGUUGUAUUCCAGCUUCUUAAGUGGAAGGAAAAGAGUG`, “RBNS enrichment (R)” read 0.711.
For `UGUCCAGGCUCCAGUGUGACAAUGGGUUGAGUCUCCAGGCCCUGGCCAGGACAUCCUGCUAUCAAUCAGAAGGACUUGGACUCUCCUGCAGAGUGCAAGUGUGGGUGUCG`, “RBNS enrichment (R)” read 0.433.

Set 5 — method: protein binding microarray; molecule type: double-stranded DNA, one strand shown; medium: in vitro; concentration: not given; baseline: not given; direction: higher = stronger binding
Target: Histone acetyltransferase KAT6A, winged helix 2, GST fusion (KAT6A, Homo sapiens, UniProt Q92794, residues 85-181)
Setting: 8-mer, flanks averaged, mean of 2 arrays, mostly near background
Target sequence (chain): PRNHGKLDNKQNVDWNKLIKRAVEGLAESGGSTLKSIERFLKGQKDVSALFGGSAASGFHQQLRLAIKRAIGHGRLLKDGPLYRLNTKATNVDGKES
`CATAGCTC` has an E-score of -0.0772.
With `GCGCTAGA` the E-score was 0.0167.
`AGTACCGG` has an E-score of -0.0881.
The E-score of `ATGTTTGG` is reported as -0.151.
`CGTACGGC` gave an E-score of -0.0704.
`ATCTGATC` has an E-score of 0.0962.
The E-score of `GTCCAGTA` is reported as -0.206.
The E-score of `ACTCATAT` is reported as -0.146.
`AACAAGAG` has an E-score of -0.1.
With `AGAGCCGA` the E-score was 0.0539.
`ATAGAAAT` has an E-score of 0.175.
`GTCGCATA` gave an E-score of 0.0527.
For `CTTAACGC`, the E-score was -0.144.
For `CACGACAG`, the E-score was 0.0183.
`GTCCTCTA` gave an E-score of -0.15.
`GCTGCGAA` gave an E-score of 0.118.

Excerpt of the above (set 5):
`GTCCTCTA` gave an E-score of -0.15.
`AGTACCGG` has an E-score of -0.0881.
The E-score of `GTCCAGTA` is reported as -0.206.
`AACAAGAG` has an E-score of -0.1.
`ATAGAAAT` has an E-score of 0.175.
`CATAGCTC` has an E-score of -0.0772.
`ATCTGATC` has an E-score of 0.0962.
